Experimental data of several laboratories.
Each line is one published result; not all experiments were run side by side. Several values in a cell are separate wells, animals, samples, runs or records. Numbers after ± are the reported error.

SMILES | cell line | test | test system | conditions | how to read | endpoint | value
O=C(C[Se]C(=O)c1cccs1)Nc1cccc(C(F)(F)F)c1 | NCI60 prostate subpanel (PC-3, DU-145) | cell growth | – | 10 µM, 48 h, one-dose | – | mean growth percent | -85.3%
CC(C)CC(O)(CC(C)C)c1cn(C(=O)N2CCCC2)nn1 | mouse T-cells | SILAC proteomics, item: ARHGEF2 | – | 1 nM, 6 h, unit not given | baseline: DMSO | protein level | 1.08
O=C(C[Se]C(=O)c1ccccc1)Nc1cccc(C(F)(F)F)c1 | NCI60 ovarian subpanel | cytotoxicity, inhibitor | – | five-dose | – | CC50 | 13.9 µM
CC[C@H](C)[C@H](NC(=O)[C@H](C)NC(=O)CNC(=O)[C@H](Cc1ccccc1)NC(=O)[C@H](CC(N)=O)NC(=O)[C@H](CC(N)=O)NC(=O)[C@H](CO)NC(=O)[C@H](CO)NC(=O)[C@H](Cc1c[nH]cn1)NC(=O)[C@@H](NC(=O)[C@H](CC(C)C)NC(=O)[C@H](Cc1ccccc1)NC(=O)[C@H](CC(N)=O)NC(=O)[C@H](C)NC(=O)[C@H](CC(C)C)NC(=O)[C@H](CCCNC(=N)N)NC(=O)[C@H](CCC(N)=O)NC(=O)[C@@H](NC(=O)[C@H](C)NC(=O)[C@@H]1CSSC[C@H](NC(=O)[C@@H](N)CCCCN)C(=O)N[C@@H](CC(N)=O)C(=O)N[C@@H]([C@@H](C)O)C(=O)N[C@@H](C)C(=O)N[C@@H]([C@@H](C)O)C(=O)N1)[C@@H](C)O)C(C)C)C(=O)N[C@@H](CC(C)C)C(=O)N[C@@H](CO)C(=O)N[C@@H](CO)C(=O)N[C@H](C(=O)N[C@@H](CC(N)=O)C(=O)N[C@H](C(=O)NCC(=O)N[C@@H](CO)C(=O)N[C@@H](CC(N)=O)C(=O)N[C@H](C(=O)N[C@@H](Cc1ccc(O)cc1)C(N)=O)[C@@H](C)O)C(C)C)[C@@H](C)O | RIN-m5F | ELISA | – | – | – | nuclear translocation lag | ~4 h
C#CCN1C(=O)C(CC#C)(C(=O)OCC)Oc2ccccc21 (stereo not shown) | HEK293T | cytotoxicity, CCK-8 | – | 3.13 µM, 72 h | – | inhibition | 0.08 ± 0.28%
CC(C)[C@H](NC(=O)[C@H](CCCNC(=N)N)NC(=O)[C@@H]1CCCN1C(=O)[C@@H](NC(=O)[C@H](C)NC(=O)[C@H](Cc1ccc(O)cc1)NC(=O)[C@H](CCC(N)=O)NC(=O)[C@H](CCCCN)NC(=O)[C@H](CCCNC(=N)N)NC(=O)[C@@H]1CCCN1C(=O)[C@H](CCC(=O)O)NC(=O)[C@@H](NC(=O)[C@H](C)N)[C@@H](C)O)[C@@H](C)O)C(=O)N[C@@H](Cc1ccccc1)C(=O)N[C@@H](Cc1c[nH]c2ccccc12)C(=O)N[C@H](C(=O)N[C@@H](CC(=O)O)C(=O)N[C@@H](C)C(=O)N1CCC[C@H]1C(=O)NCC(=O)NCCOCCOCCOCCOCCOCCOCCOCCOCCOCCOCCOCCOCCC(=O)N[C@@H](CS)C(N)=O)[C@@H](C)O | HCC78 | phage binding | – | – | baseline: targeting over control phage | selectivity ratio | 1.6 ± 0.8
O=C(O)c1ccc(-c2nc(-c3ccccc3Cl)c3sccn23)cc1 | K562 | erythroid differentiation, flow cytometry | – | 0.1 mM, 48 h | baseline: untreated | CD235a fluorescence intensity | 0.44 fold change and 0.6 fold change and 0.74 fold change
NC(=O)N/N=C/c1ccc(OCc2cccc(F)c2)cc1 | IMR-32 | – | – | 400 µg/mL, 24 h | higher = more activity | catalase activity (OD450) | 0.061 a.u.
COc1ccccc1-c1ccncc1C(=O)Nc1nnc(OCc2ccc(Cl)cc2)s1 | RPE-1 BRCA1 WT parental | – | – | 2 µM, average of 2 runs | baseline: untreated | colony survival | 87.9%
O=C(C[Se]C(=O)c1ccc2ccccc2n1)Nc1cccc(C(F)(F)F)c1 | NCI60 NSCLC subpanel | NCI60 five-dose screen | – | – | – | CC50 | 6.42 µM
[Cl-].[Cl-].[Ru+2].c1ccc(-c2ccccn2)nc1.c1ccc(-c2ccccn2)nc1.c1ccc2cc3nc4c5cccnc5c5ncccc5c4nc3cc2c1 | SK-MEL-28 | resazurin | – | normoxia, added: visible light | baseline: dark EC50 over light EC50 | phototherapeutic index | 791
O=C(C[Se]C(=O)C12CC3CC(CC(C3)C1)C2)Nc1cccc(C(F)(F)F)c1 | NCI60 renal subpanel | cytotoxicity, inhibitor | – | five-dose | – | CC50 | 31.6 µM
[Cl-].[Cl-].[Ru+2].c1ccc(-c2ccccn2)nc1.c1ccc(-c2ccccn2)nc1.c1ccc2cc3nc4c5cccnc5c5ncccc5c4nc3cc2c1 | SK-MEL-28 | cell viability | – | normoxia, added: blue light 453 nm, 100 J/cm2 | – | EC50 | 0.104 ± 0.001 µM
O=C(C[Se]C(=O)c1ccccc1Nc1cccc(C(F)(F)F)c1)Nc1cccc(C(F)(F)F)c1 | NCI60 prostate subpanel (PC-3, DU-145) | cytotoxicity, inhibitor | – | five-dose | – | CC50 | 7.39 µM
CC(C)C[C@H](NC(=O)[C@H](CC(=O)O)NC(=O)CNC(=O)[C@@H](N)CCCNC(=N)N)C(=O)N[C@@H](C)C(=O)N[C@H](C(=O)N[C@@H](CC(C)C)C(=O)N[C@@H](CCCNC(=N)N)C(=O)N[C@@H](CCC(N)=O)C(=O)N[C@@H](CC(C)C)C(=O)N[C@@H](C)C(=O)N[C@@H](CCC(N)=O)C(=O)N[C@@H](CCC(=O)O)C(=O)N[C@@H](CC(=O)O)C(=O)NCC(=O)N[C@H](C(=O)N[C@H](C(=O)NCC(=O)N[C@H](C(=O)N[C@@H](CCCNC(=N)N)C(=O)NCCOCCOCCOCCOCCOCCOCCOCCOCCOCCOCCOCCOCCC(=O)N[C@@H](CS)C(N)=O)C(C)C)C(C)C)C(C)C)[C@@H](C)O | H2347 lung adenocarcinoma | cell binding, phage binding, item: output/input phage | – | 10 min, 37 °C | baseline: control phage | selectivity ratio | 38 ± 9.2
Cc1cc(Oc2nc(N3CC[C@@H](c4ccncc4)C3)ncc2F)[nH]n1 | TE-671 | cell proliferation | muscle cancer | – | – | IC50 | 42.7 µM
CC(C)(C)C(=O)OCOP(=O)(OCOC(=O)C(C)(C)C)C1CCCN(O)C1=O (stereo not shown) | SK-MEL-28 | – | – | – | – | CC50 | 6.34 µM
CC(=O)NCSC[C@H](NC(=O)[C@@H]1CCCN1C(=O)[C@H](C)NC(=O)[C@@H](NC(=O)CNC(=O)[C@@H](NC(=O)[C@H](Cc1c[nH]c2ccccc12)NC(=O)[C@H](C)NC(=O)CNC(=O)[C@H](CO)NC(=O)[C@H](C)NC(=O)[C@@H]1CCCN1C(=O)[C@H](Cc1c[nH]c2ccccc12)NC(=O)[C@H](C)NC(=O)[C@H](C)NC(=O)[C@@H](N)Cc1ccc(O)cc1)[C@@H](C)O)[C@@H](C)O)C(=O)N[C@@H](CO)C(=O)N[C@@H](C)C(=O)NCC(=O)N[C@H](C(=O)NCCOCCOCCOCCOCCOCCOCCOCCOCCOCCOCCOCCOCCC(=O)N[C@@H](CS)C(N)=O)[C@@H](C)O | HCC15 | phage binding | – | – | baseline: targeting over control phage | selectivity ratio | 16 ± 1.4
O=C(C[Se]C(=O)c1ccco1)Nc1cccc(C(F)(F)F)c1 | NCI60 NSCLC subpanel | NCI60 five-dose screen | – | – | – | GI50 | 2.55 µM
CCOC(=O)C1(Cc2ccccc2)Oc2cc(F)ccc2N(Cc2ccccc2)C1=O (stereo not shown) | HEK293T | cytotoxicity, CCK-8 | – | 6.25 µM, 72 h | – | inhibition | 0.17 ± 0.32%
N[C@H](C(=O)N1CCCC1)C1CCN(c2nccc3c(-c4ncc(Cl)cc4Cl)cccc23)CC1 | human neutrophils | protein citrullination, inhibitor, flow cytometry, item: citrullinated proteins | – | 10 nM, added: ionomycin | – | inhibition | 14.9% and 4.74% and 3.08% and 7.63%
Cc1c(Cl)cccc1Nc1ccccc1C(=O)[Se]CC(=O)Nc1cccc(C(F)(F)F)c1 | NCI60 ovarian subpanel | cytotoxicity, inhibitor | – | five-dose | – | CC50 | 8.33 µM
Cc1cccc(-c2cccc(C)n2)n1.Cc1cccc(-c2cccc(C)n2)n1.F[P-](F)(F)(F)(F)F.F[P-](F)(F)(F)(F)F.[Ru+2].c1ccc2c(-c3nc4c5cccnc5c5ncccc5c4[nH]3)cccc2c1 | SK-MEL-28 | cell viability | – | normoxia, added: blue light 453 nm, 100 J/cm2 | – | EC50 | 2.43 ± 0.06 µM
CSCC[C@H](NC(=O)[C@@H](NC(=O)[C@H](CCC(N)=O)NC(=O)[C@H](CO)NC(=O)[C@@H](N)C(C)C)[C@@H](C)O)C(=O)N[C@@H](CCCNC(=N)N)C(=O)N[C@@H](CCC(N)=O)C(=O)N[C@H](C(=O)N[C@@H](C)C(=O)N[C@H](C(=O)N1CCC[C@H]1C(=O)N[C@@H](CC(C)C)C(=O)N[C@@H](CC(C)C)C(=O)N[C@@H](Cc1c[nH]c2ccccc12)C(=O)N[C@@H](Cc1ccccc1)C(=O)N[C@@H](Cc1c[nH]c2ccccc12)C(=O)N[C@H](C(=O)NCC(=O)N[C@@H](CO)C(=O)N[C@@H](CC(C)C)C(=O)NCCOCCOCCOCCOCCOCCOCCOCCOCCOCCOCCOCCOCCC(=O)N[C@@H](CS)C(N)=O)[C@@H](C)O)C(C)C)[C@@H](C)O | T47D breast cancer | cell binding, phage binding, item: output/input phage | – | 10 min, 37 °C | baseline: control phage | selectivity ratio | 10 ± 2.2
CC1OC2OC3C4=C(OC3(C)C12O)C(=O)c1c(O)cccc1C4=O (stereo not shown) | PC-3 | SRB | – | 10 µg/mL, 48 h | negative values mean cell killing | growth percent | -76.4%

For quick reference, copied from above:
SMILES | cell line | test | test system | conditions | how to read | endpoint | value
[Cl-].[Cl-].[Ru+2].c1ccc(-c2ccccn2)nc1.c1ccc(-c2ccccn2)nc1.c1ccc2cc3nc4c5cccnc5c5ncccc5c4nc3cc2c1 | SK-MEL-28 | resazurin | – | normoxia, added: visible light | baseline: dark EC50 over light EC50 | phototherapeutic index | 791
CC(C)[C@H](NC(=O)[C@H](CCCNC(=N)N)NC(=O)[C@@H]1CCCN1C(=O)[C@@H](NC(=O)[C@H](C)NC(=O)[C@H](Cc1ccc(O)cc1)NC(=O)[C@H](CCC(N)=O)NC(=O)[C@H](CCCCN)NC(=O)[C@H](CCCNC(=N)N)NC(=O)[C@@H]1CCCN1C(=O)[C@H](CCC(=O)O)NC(=O)[C@@H](NC(=O)[C@H](C)N)[C@@H](C)O)[C@@H](C)O)C(=O)N[C@@H](Cc1ccccc1)C(=O)N[C@@H](Cc1c[nH]c2ccccc12)C(=O)N[C@H](C(=O)N[C@@H](CC(=O)O)C(=O)N[C@@H](C)C(=O)N1CCC[C@H]1C(=O)NCC(=O)NCCOCCOCCOCCOCCOCCOCCOCCOCCOCCOCCOCCOCCC(=O)N[C@@H](CS)C(N)=O)[C@@H](C)O | HCC78 | phage binding | – | – | baseline: targeting over control phage | selectivity ratio | 1.6 ± 0.8
